Experimental data of several laboratories.
Every numbered part comes from another study and shows a few of its results, in no order. Positions count from the first letter of the parent shown.

Series 1
Target: ABI1, truncated, D143A, DHFR fusion (Arabidopsis thaliana)
Method: DHFR PCA, deep sequencing
Medium: yeast
Notes: methotrexate growth selection, single substitutions
Added: (+)-ABA 0.11 µM
Reference: wild-type fitted maximum
Direction: higher = stronger binding
Endpoint: relative binding score
Starting sequence: PYL1, truncated, DHFR fusion (Arabidopsis thaliana); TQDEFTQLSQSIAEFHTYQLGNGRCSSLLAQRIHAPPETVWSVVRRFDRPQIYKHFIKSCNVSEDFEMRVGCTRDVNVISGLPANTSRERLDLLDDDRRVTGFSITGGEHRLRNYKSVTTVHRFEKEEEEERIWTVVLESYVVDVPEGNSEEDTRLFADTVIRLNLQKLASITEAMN; partner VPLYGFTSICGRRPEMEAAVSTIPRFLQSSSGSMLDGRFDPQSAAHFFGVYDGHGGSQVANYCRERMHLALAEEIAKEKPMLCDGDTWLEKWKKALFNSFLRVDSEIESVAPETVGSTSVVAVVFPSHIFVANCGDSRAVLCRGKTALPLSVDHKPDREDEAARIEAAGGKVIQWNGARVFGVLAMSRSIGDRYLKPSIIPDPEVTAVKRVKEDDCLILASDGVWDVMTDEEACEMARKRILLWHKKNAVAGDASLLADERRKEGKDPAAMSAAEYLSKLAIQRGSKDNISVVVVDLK
F5L: 49%
M176F: 8.81%
D3Q: 52.9%
T1Q: 26.4%
G102W: 6.14%
F15G: 0.69%
F56L: 7.32%
Q10V: 13.4%
I105V: 21.5%
T101K: -3.59%
D92I: -0.491%
R98M: 11.1%
E151A: 55.9%
Q7C: 31.4%
A13N: 35.8%
T101G: -8.56%
S117N: 0.487%

Series 2
Target: Fragile X messenger ribonucleoprotein 1, C-terminal low-complexity region (Fmr1, Mus musculus, UniProt P35922)
Method: RNA Bind-n-Seq
Molecule type: RNA
Medium: in vitro
Tested at: 200 nM
Notes: whole 134-nt RNA, ends assumed
Added: 150 mM LiCl
Reference: input library
Direction: higher = stronger binding
Endpoint: log2 enrichment
Library: 7-deaza-guanosine replaces G
Shared flanks, not repeated: GGGAGUUCUACAGUCCGACGAUC … UGGAAUUCUCGGGUGUCAAGG
CCUCAAGUCCUGUGCUACACAUCGUAUGUACCGAAUCGGAGGUGGUUUUUGGAAAGUAUUAUGUUACGCCGUUCGGAUCUGCACUUCCAG: -0.391
ACCAUGCAGGUGGGCAUCUUUGGGAAGUGGGGCAAGGGGGUGAUAGGGAGGGGGGUAACACUUUGGGAACAGGUGGUCCCAGGUCGUUUC: 0.605
GUCCUGUGCUACACAUCGUAUGUACCGAAUCGGGAAAAAGGGAAAAAGGGAAAAAGGGGAAAGUAUUAUGUUACGCCGUUCGGAUCUGCA: 0.579
CUGUGCUACACAUCGUAUGUACCGAAUCGGGGUUUUUUUGGGGAAAGGGGUUUUUUUGGGGAAAGUAUUAUGUUACGCCGUUCGGAUCUG: -0.667
CAAGUCCUGUGCUACACAUCGUAUGUACCGAAUCGGGAGGGAGGGAAAAAAAGGGAAAGUAUUAUGUUACGCCGUUCGGAUCUGCACUUC: -0.316
CACAGACAACACGCACCCACACAGACACAGAGGGAAGGGGUUGGGAUGGGGACAGGGUGCACAGCAGGGCGGGGUAGGACCUCAGCCCCU: 0.301
GUCCUGUGCUACACAUCGUAUGUACCGAAUCGGGGAAAGGGGUUUUUUUGGGGUGGGGAAAGUAUUAUGUUACGCCGUUCGGAUCUGCAC: -0.52
UGGGAGGUGGAUUUUGUUUAUUUUUUUAGCUCAUUUCCAGGGGUGGGAAUUUUUUUUUAAUAUGUGUCAUGAAUAAAGUUGUUUUUGAAC: -0.438

Series 3
Target: CCNB3, cyclin fold, Cln2 fusion (human)
Method: yeast growth competition, sequencing
Medium: yeast
Notes: weak parent motif
Reference: not given
Direction: higher = stronger binding
Endpoint: normalised enrichment score
Starting sequence: REV3L docking peptide (human); PPVIIKYIIINRF; partner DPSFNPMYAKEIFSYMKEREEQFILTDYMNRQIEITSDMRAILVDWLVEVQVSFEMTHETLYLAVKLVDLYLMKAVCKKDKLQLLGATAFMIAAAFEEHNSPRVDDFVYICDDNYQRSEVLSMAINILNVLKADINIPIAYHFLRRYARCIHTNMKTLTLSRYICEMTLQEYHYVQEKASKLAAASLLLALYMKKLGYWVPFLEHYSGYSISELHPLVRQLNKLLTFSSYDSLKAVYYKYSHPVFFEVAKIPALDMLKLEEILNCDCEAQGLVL
F13A: 0.431
Y7A: 0.397
I9A: 0.191
P1A: 0.18
N11A: 0.0691
V3A: 0.227

Series 4
Target: RING finger protein unkempt homolog, zinc fingers 1-6, GST-SBP tag (UNK, Homo sapiens, UniProt Q9C0B0, residues 30-357)
UniProt Q9C0B0, sequence (30-357, looked up): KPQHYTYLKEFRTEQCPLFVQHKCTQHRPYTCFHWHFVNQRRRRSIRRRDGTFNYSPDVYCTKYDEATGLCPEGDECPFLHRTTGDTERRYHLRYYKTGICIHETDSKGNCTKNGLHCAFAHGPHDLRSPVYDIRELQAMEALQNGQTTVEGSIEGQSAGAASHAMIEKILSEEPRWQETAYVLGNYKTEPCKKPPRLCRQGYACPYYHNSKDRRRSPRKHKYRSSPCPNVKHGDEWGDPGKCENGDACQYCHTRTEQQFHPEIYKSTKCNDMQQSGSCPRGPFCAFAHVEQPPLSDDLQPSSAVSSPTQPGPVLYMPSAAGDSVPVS
Method: RNA Bind-n-Seq
Molecule type: RNA
Medium: in vitro
Tested at: not given
Notes: RNA with constant flanks, human and mouse sites, ends assumed
Reference: input RNA pool
Direction: higher = stronger binding
Endpoint: bound/input enrichment
Shared flanks, not repeated: GGGAGUUCUACAGUCCGACGAUC … CAACAGAGGAUUGAGCAUCA
AAACACUCAAGAGCUGCCUGGUAUGAAGCAAAGAGGAUCCUGGGCUAUUUAAAGCUCUGGUAACCGAGAAGAACUUGCCCCUGUUCUUACCUAGCUUCUUUGAGUCAGUCAGUGUGCAGA: 0.15 ratio
AUAUUUUCACAUGCCUAUUUUCAUCACCGGCAGAUAUUUGAUGAAUAUGAAAAUGAAACAUUUUUAUGUCAUCGGUUUACCAAAUUUGUGAUGAAAUAUAAUCUGAUGUCGAAGGAUAAC: 0.253 ratio
UUAGAUUCUGGAAAAUUUCGAGUUUUAGGAUGCAUCUUGUCUGAAUUGAAACAGAAGGGUGAUAGAGUUGUGUUAUUUAGCCAAUUUACCAUGAUGCUGGAUAUCUUAGAGGUUCUAUUA: 5.54 ratio
AUUCUACCCUGUGCAUAUCUUUCUGUGUAGAGAGAUGGCAAACUUGAAAAUACUUACCCAGAAAACAGUUCAGUUAUAGAAUGGUUAAGGAGCACUUGGCCCGCUUCCUAUUCCACAUUU: 0.255 ratio
CUGAAUCUGCCAACCUUCAGUGUUCGAAUCAUUGACAAAAAUGGCAUCCAUGACCUGGAUAACAUUUCCUUCCCCAAACAGGGCUCCUAACAUCAUGUCCUCCCUCCCACUUGCCAGGGA: 0.313 ratio
ACUCAGCACCUCAGUGUCGAGACUUCGUACCUUCAGCAUGAGAGUGGCCGCAUUUCCACUAAGUUUGAAUUUGUCCCCAGCCCUGGAAACCAUUUUAUCUGGUAUCGGGGGAAAUGGAUU: 0.184 ratio
GCCAAGGGAAGAGAUGGUGUUGAGUGGAAAAUACAAAUCUGGGGAACAAAUUCUUCGUUUGGCCAAUGAGAGAUUUGCUGUUCCGGAAAUACUCUUUAAUCCUUCUGAUAUAGGCAUUCA: 0.276 ratio
CAGAGAUGUAUACCUGACCUUUCAGCCCUCAAUGGUACCUGGACGCCAGGAAGUAGGAUGAAGUUUGAAGAUGGAAGUGGGCAGACCAGGACUAUGCUAGAAUUCAGGGAGGCUGCGAAC: 0.49 ratio

Some of these lines once more (series 1):
F15G: 0.69%
F56L: 7.32%
Q10V: 13.4%
I105V: 21.5%
T101K: -3.59%
D92I: -0.491%
R98M: 11.1%
